Earlier results, collected from citations in different studies.
± gives the spread as reported.
UniProt P23977, sequence (whole entry, looked up): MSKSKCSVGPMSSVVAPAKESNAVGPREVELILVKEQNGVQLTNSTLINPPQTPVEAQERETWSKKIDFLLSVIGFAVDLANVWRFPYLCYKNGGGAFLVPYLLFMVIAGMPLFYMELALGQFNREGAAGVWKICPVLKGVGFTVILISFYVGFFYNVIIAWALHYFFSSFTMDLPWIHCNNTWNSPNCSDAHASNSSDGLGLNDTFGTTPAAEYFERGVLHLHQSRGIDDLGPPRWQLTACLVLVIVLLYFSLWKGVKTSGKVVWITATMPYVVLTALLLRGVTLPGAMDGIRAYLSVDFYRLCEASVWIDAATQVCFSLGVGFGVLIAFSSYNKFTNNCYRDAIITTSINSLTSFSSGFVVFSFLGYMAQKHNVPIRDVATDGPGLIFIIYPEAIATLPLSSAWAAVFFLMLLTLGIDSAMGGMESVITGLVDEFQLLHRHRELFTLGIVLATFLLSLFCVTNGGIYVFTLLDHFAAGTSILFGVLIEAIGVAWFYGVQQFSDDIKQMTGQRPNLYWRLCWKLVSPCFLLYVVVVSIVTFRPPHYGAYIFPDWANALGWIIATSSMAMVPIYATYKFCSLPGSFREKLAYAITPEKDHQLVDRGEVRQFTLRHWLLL
UniProt P25100, sequence (whole entry, looked up): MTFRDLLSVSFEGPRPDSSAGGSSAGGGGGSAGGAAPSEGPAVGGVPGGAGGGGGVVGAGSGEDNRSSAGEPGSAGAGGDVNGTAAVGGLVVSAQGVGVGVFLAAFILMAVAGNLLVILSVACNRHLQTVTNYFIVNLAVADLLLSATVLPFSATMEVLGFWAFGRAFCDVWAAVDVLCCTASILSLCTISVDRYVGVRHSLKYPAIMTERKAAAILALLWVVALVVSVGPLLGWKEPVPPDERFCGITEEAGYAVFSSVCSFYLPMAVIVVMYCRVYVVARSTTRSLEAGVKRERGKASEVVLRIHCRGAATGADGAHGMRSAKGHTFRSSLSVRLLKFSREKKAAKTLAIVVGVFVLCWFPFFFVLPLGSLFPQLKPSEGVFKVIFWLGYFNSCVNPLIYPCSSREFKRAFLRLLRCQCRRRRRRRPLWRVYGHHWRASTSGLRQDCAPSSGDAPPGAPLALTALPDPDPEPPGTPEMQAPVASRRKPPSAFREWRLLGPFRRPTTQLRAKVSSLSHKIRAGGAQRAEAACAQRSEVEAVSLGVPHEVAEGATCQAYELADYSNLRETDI
UniProt P31645, sequence (whole entry, looked up): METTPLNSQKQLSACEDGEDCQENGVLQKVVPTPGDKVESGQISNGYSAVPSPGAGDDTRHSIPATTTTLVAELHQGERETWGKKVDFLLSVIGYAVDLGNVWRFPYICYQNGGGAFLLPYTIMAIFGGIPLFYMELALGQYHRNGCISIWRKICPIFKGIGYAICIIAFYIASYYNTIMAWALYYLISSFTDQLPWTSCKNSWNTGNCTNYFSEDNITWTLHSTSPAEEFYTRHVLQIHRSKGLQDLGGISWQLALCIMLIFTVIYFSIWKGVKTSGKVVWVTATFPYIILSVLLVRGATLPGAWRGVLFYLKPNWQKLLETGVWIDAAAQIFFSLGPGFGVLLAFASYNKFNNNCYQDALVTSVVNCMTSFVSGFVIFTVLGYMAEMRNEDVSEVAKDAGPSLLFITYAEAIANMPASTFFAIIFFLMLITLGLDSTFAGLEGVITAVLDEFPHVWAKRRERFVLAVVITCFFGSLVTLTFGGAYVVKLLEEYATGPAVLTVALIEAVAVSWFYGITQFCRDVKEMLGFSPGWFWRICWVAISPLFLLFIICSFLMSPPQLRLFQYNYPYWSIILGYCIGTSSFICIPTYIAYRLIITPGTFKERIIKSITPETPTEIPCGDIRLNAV

Under “blood glucose lowering”, `CC1=C[C@H](O)[C@@H](O)[C@]2(C)[C@H]3[C@@H](O)[C@H](O)[C@@]4(C)OC[C@@]35[C@@H](C[C@@H]12)OC(=O)[C@H](O)[C@]54O` is recorded as 73.6 ± 13.6% (streptozotocin diabetic rats; dose not given; reference: untreated diabetic rats).
`Nc1nc2c(ncn2COCCO)c(=O)[nH]1` has an ED50 of 22 mg/kg (three-week survival; mouse, intranasal HSV-1 infection; oral).
Under EC50, `CCCC(C(=O)c1ccc2c(c1)OCO2)N1CCCC1` (centres unmarked) is recorded as “inactive” (Sodium-dependent dopamine transporter (Slc6a3, Rattus norvegicus, UniProt P23977); transporter-mediated release, substrate; rat brain synaptosomes).
`C[C@]12CC[C@@H]3c4ccc(O)cc4CC[C@H]3[C@@H]1CC[C@H]2O` gave a survival rate of 71% (rat transient MCA occlusion; subcutaneous implant, dose not given, 24 h pretreatment).
`C[C@@]12CC[C@H](O)C[C@H]1CC[C@@H]1[C@@H]2CC[C@]2(C)[C@H]1CC[C@]21CO1` (single isomer, unassigned) has an EC50 of 2710 ± 10 nM (loss of swimming reflex; tadpoles).
For `C#C[C@]1(CO)O[C@@H](n2cnc3c(N)nc(F)nc32)C[C@@H]1O`, “viral load reduction” read 1.78 log10 copies/mL (human, cART-naive HIV-1 infected; 10 mg single dose, up to day 10).
The kcat of `C[C@]12CCC(=O)CC1=CC[C@@H]1[C@@H]2CC[C@]2(C)C(=O)CC[C@@H]12` is reported as 13.3 ± 0.6 s⁻¹ (ketosteroid isomerase Y14F; substrate; pH 7.0, 3.3 % methanol).
For `C=CC(C)=O`, the IC50 was 717000 nM (dopamine vesicular uptake; striatal synaptic vesicles; together with: [3H]dopamine).
For `C[C@]1(c2nc3c(C(N)=O)cccc3[nH]2)CCCN1`, the response rate was 60% (human germline BRCA-mutated cancer; dose not given).
With `C=CCN(CC=C)CCc1c[nH]c2ccccc12` the Ki was 150 nM (Sodium-dependent serotonin transporter (SLC6A4, Homo sapiens, UniProt P31645); binding; together with: [3H]citalopram).
The relapse rate of `CCCCCCCCCCCCCCCCOP(=O)([O-])OCC[N+](C)(C)C` is reported as 20% (human visceral leishmaniasis Nepal; concentration not given, 12 months).
`C=C(C)[C@@H]1CCC(C)=C[C@H]1c1c(O)cc(CCCCC)cc1O`: “inhibition of acetic acid writhing” “inactive” (mouse; oral, dose not given).
For `C=CCN(CC=C)CCc1c[nH]c2ccc(F)cc12`, the Ki was over 10000 nM (Alpha-1D adrenergic receptor (ADRA1D, Homo sapiens, UniProt P25100)).
`CN1C/C(=C\c2ccc(Cl)cc2Cl)C/C(=C/c2ccc(Cl)cc2Cl)C1` gave an IC50 of 380 nM (dopamine release, inhibitor; striatal slices; together with: methamphetamine).
With `Cc1nc(N(C)C(=O)Cc2ccc(-c3ccccn3)cc2)sc1S(N)(=O)=O` the ED50 was 0.5 mg/kg (three-week survival; mouse, intranasal HSV-2 infection; oral).
For `COC1C2OP(O)(=S)OCC2OC1n1c(Sc2ccc(Cl)cc2)nc2c(N)ncnc21` (centres unmarked), “Km or Ki” read 380 nM (PDE1A; cyclic nucleotide hydrolysis, substrate or inhibitor, isothermal titration calorimetry).
`COc1ccc(CC[C@H]2CCC[C@@H](CCc3ccc(OC)cc3)N2C[C@@H](O)CO)cc1` (relative stereo) gave an IC50 of 10600 nM (dopamine release, inhibitor; striatal slices; together with: methamphetamine).
`COc1cc2c(Oc3ccc4[nH]c(C)cc4c3F)ccnc2cc1OCC1(N)CC1.Cl.Cl`: “median overall survival” 9.6 months (human, advanced NSCLC, pretreated; dose not given).
`COCCOCCOCCOc1ccc(C2=N[C@@](C)(C(=O)OC(C)C)CS2)c(O)c1` — result for “iron clearing efficiency”: 22.1 ± 7.6% (bile duct-cannulated rats; subcutaneous, 300 µmol/kg).
For `tirzepatide`, “HbA1c change from baseline” read -2.3% (type 2 diabetes patients; 15 mg weekly, 40 weeks).

Excerpt of the above:
With `Cc1nc(N(C)C(=O)Cc2ccc(-c3ccccn3)cc2)sc1S(N)(=O)=O` the ED50 was 0.5 mg/kg (three-week survival; mouse, intranasal HSV-2 infection; oral).
For `COC1C2OP(O)(=S)OCC2OC1n1c(Sc2ccc(Cl)cc2)nc2c(N)ncnc21` (centres unmarked), “Km or Ki” read 380 nM (PDE1A; cyclic nucleotide hydrolysis, substrate or inhibitor, isothermal titration calorimetry).
`COc1ccc(CC[C@H]2CCC[C@@H](CCc3ccc(OC)cc3)N2C[C@@H](O)CO)cc1` (relative stereo) gave an IC50 of 10600 nM (dopamine release, inhibitor; striatal slices; together with: methamphetamine).
